Published values pooled from the literature.
Parts stem from different laboratories: compare values within a part only. Substitutions count along the parent as printed.

Study 1 — organism: Saccharomyces cerevisiae; effect on: binding; technique: yeast competitive growth sequencing; molecule type: peptide; strain: cyclin A1-Cln2 strain; sample: peptide tiling library; reading: direction not given
For `NFETPEAETPIRSPFK`, the enrichment score was 0.475.
For `GAEELEDLVHFSVSEL`, the enrichment score was 2.41.
For `LRRQLSFSED`, the enrichment score was 0.411.
For `GFGFLLFICKLTF`, the enrichment score was -1.32.
`RRVLCFDS` gave an enrichment score of -1.23.
`LRRKLFLDGNGSIS` gave an enrichment score of -1.42.
`TTTTSPRTPPPLTVQD` has an enrichment score of 1.26.
For `ARKRLELGNLGNPQ`, the enrichment score was -1.15.
For `PPTFLSTGEIHAFLSS`, the enrichment score was -0.00191.
The enrichment score of `PPKPLKKLRFDIEGSD` is reported as -0.757.
`RKLHFEDEVT` has an enrichment score of -0.0112.

Study 2 — technique: RNA Bind-n-Seq; molecule type: RNA; sample: in vitro; tested at: not given; reference: input RNA pool; reading: higher = stronger binding
Target: RING finger protein unkempt homolog, zinc fingers 1-6, GST-SBP tag (UNK, Homo sapiens, UniProt Q9C0B0, residues 30-357)
Setting: RNA with constant flanks, human-mouse chimeric sites, ends assumed
Target sequence (chain): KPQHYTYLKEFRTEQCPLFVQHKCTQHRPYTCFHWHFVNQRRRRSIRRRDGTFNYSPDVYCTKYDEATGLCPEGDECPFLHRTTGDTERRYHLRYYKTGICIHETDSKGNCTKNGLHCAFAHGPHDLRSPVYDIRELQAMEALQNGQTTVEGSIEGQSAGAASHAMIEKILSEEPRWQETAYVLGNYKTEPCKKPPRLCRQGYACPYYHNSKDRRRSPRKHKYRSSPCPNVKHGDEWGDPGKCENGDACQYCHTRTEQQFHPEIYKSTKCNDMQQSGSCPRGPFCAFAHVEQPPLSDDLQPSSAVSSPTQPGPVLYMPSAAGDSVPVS
With `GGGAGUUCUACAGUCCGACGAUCAACUUCGUACAUAGAUUUCCUUUUGUAGCUGUUUCAAUUGGCUUCCUUGUGAAUAAAGAGAUGGAGUUUGGAAUUGUGUACAGCUGUGUGGAAGAUAAGAUGUACACCGGCAGGAAAGGGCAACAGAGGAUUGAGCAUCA` the bound/input enrichment was 0.964 ratio.
With `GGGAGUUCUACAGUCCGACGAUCUAUAAUAAUCAUGAAAUUCGUUCCGGGAAACAUAUUGGUGUCUGCAUCUCAGUUGCCAACAAUAGGCUUUUUGUGGGCUCGAUUCCUAAGAGUAAAACCAAGGAGCAGAUUCUUGAAGAACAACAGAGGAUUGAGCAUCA` the bound/input enrichment was 2.57 ratio.
`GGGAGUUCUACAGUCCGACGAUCGAUCCACAGUGGUCUGAGGAGCAACUCAUUGCUGCAAAAUUCUGUUUUGCUGGCCUUCUUAUAGGCCAGACUGAAGUGGACAUCAUGAGUCAUGCUACACAAGCUAUUUUUGAAAUUCUGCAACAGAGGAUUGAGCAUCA` gave a bound/input enrichment of 0.0952 ratio.
For `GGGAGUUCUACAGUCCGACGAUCUCCCAAAUCCAGCAGCUAGAAGGAGCCAAUUGUUUGUCACUCCACACGCAGGGAGGGCGAUAACAUUGUACAUUGGUUUACAUUUUUUCCCCCUGUGGAUUUUUCUAGAGGUCAUAGUGCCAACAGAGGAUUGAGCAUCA`, the bound/input enrichment was 0.627 ratio.
`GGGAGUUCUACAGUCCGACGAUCUGGGCACUGUAUCAGAUAUAUUAAUUUUUUAAUGUAGAUGUAAUUUUAAAAAUGAAUGGCUACUUUACACGUUUAACUAGGGUUUUACUAUAUAUGUGUACAUAUGUAUAUAUAUAUAUACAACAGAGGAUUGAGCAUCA` gave a bound/input enrichment of 16 ratio.
`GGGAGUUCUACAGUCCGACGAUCUUGAAAACUGAUUCAAGUAAGUUUGAGUAUCACAAUGUUAGCUUUCUAAUUCCAUAAAGAUAGUUUUUUUUUACAGUAACCCCACAUACAUCACCCCAGCGCCAUUUGUAAAGAGCAACUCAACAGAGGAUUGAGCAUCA` gave a bound/input enrichment of 13.8 ratio.
The bound/input enrichment of `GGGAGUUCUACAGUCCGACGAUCUGUGAACUGUCUCUUGAGAUCUAAAAAAAACAUGAUUUUUCCUGGCACAUAUUCCAAAGCAAAGACUUUGUUACCUGCUGCUUAUUGUCUAAUUUACAGGGAUAUUUAAUUUUGUCAGGUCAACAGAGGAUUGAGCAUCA` is reported as 0.186 ratio.
`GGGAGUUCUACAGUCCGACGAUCCUAAUCCCCUUCGUUGCUCCCCCACUUCUCAUGGUAAUAACAAAGUCUUAUAUCCCCGUCCUAGCUUUCACUCAGAUGGCUUAUGGAGCCGGUUUCCUAGCUUUCUUGGGAGGGAUCAGACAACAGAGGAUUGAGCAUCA` gave a bound/input enrichment of 0.196 ratio.

Study 3 — technique: protein binding microarray; molecule type: double-stranded DNA, one strand shown; sample: in vitro; tested at: not given; reference: not given; reading: higher = stronger binding
Target: Histone acetyltransferase KAT6A, winged helix 1, GST fusion (KAT6A, Homo sapiens, UniProt Q92794, residues 1-85)
Setting: 8-mer, flanks averaged, mean of 2 arrays, mostly near background
Target sequence (chain): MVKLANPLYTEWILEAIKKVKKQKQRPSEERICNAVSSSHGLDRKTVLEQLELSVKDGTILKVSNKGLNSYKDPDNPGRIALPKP
The E-score of `AAATATCA` is reported as -0.189.
`AGTCGGGA` has an E-score of 0.148.
The E-score of `CCTAGAAG` is reported as 0.0339.
For `CCTAGCTA`, the E-score was -0.15.
For `CATACGCA`, the E-score was 0.133.
With `CATTCAGC` the E-score was -0.0646.
The E-score of `CGAGGTAG` is reported as -0.0436.
With `ACCCAATC` the E-score was -0.209.
`CATGTAGA` has an E-score of -0.167.
`AAAGCTCT` gave an E-score of -0.0172.
`AACTCTCC` has an E-score of -0.117.
`CGCCGGAG` gave an E-score of 0.297.
`CTTTCCGA` gave an E-score of 0.108.
`AACTAAAA` has an E-score of -0.147.
The E-score of `AGATGAAC` is reported as -0.141.
With `AAAACAGT` the E-score was -0.0678.
With `ACTCACTG` the E-score was -0.185.
The E-score of `CCCTAAGA` is reported as -0.287.
The E-score of `CCAAGCAA` is reported as -0.223.
`CATTGAGC` gave an E-score of 0.0149.
`AATAGCCA` has an E-score of -0.292.

Study 4 — technique: RNAcompete; molecule type: RNA; sample: in vitro; tested at: 20 nM; setting: 7-mer, probes averaged, single round; reference: mean of 7-mers; reading: higher = stronger binding
Target: PABPC1L2, full length, GST fusion (mouse, UniProt A0ABA7IW68)
Target sequence (chain): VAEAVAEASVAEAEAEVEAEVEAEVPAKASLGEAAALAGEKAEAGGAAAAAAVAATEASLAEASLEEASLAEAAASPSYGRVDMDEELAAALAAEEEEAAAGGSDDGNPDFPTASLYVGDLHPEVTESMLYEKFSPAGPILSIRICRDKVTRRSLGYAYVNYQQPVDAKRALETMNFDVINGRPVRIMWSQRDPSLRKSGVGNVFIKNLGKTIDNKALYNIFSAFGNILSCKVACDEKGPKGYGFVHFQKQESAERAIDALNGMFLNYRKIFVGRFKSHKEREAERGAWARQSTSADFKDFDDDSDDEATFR
For `GGUAUUG`, the 7-mer Z-score was -0.112.
The 7-mer Z-score of `CUAACCC` is reported as -0.371.
`UUAGCGG` gave a 7-mer Z-score of 0.106.
With `CCAACCA` the 7-mer Z-score was 0.017.
With `AUCAUGU` the 7-mer Z-score was -0.284.
With `UCCGCCA` the 7-mer Z-score was -0.409.
`CCUGUCC` has a 7-mer Z-score of -0.385.
`UGCUGAA` has a 7-mer Z-score of 0.215.
`UUCGAGA` has a 7-mer Z-score of -0.0971.
`UGUGUUA` gave a 7-mer Z-score of -0.277.
`ACAUCUC` gave a 7-mer Z-score of -0.282.
For `GAAAGAC`, the 7-mer Z-score was 0.804.
`CGAUAUA` has a 7-mer Z-score of -0.0917.
`UUGAAGC` gave a 7-mer Z-score of -0.26.
The 7-mer Z-score of `GAGUACG` is reported as -0.257.
For `UGAGCCU`, the 7-mer Z-score was -0.238.
`CAUAUUU` gave a 7-mer Z-score of -0.157.
The 7-mer Z-score of `CGCCACG` is reported as -0.246.
The 7-mer Z-score of `GAAGCUU` is reported as -0.284.
With `ACACAUC` the 7-mer Z-score was -0.155.
With `GUGUAUC` the 7-mer Z-score was -0.302.
For `UUCGCGG`, the 7-mer Z-score was -0.333.
The 7-mer Z-score of `GCUAGUG` is reported as -0.162.
The 7-mer Z-score of `CAAUGUC` is reported as -0.257.
`ACUUGCG` gave a 7-mer Z-score of -0.209.

Study 5 — technique: universal PBM; molecule type: double-stranded DNA, one strand shown; sample: in vitro; tested at: not given; reading: higher = stronger binding
Target: Sal-like protein 4, full length isoform B (SALL4, Homo sapiens, UniProt Q9UJQ4-2, residues 1-616)
Setting: 8-mer, flanks averaged, mean of replicates
`AGTCGATA` has an E-score of 0.184.
`CCCATGCG` gave an E-score of -0.22.
For `CTTTGAAC`, the E-score was -0.047.
With `CGGCCTGC` the E-score was -0.319.
With `AGCGATGC` the E-score was -0.238.
The E-score of `ATCTACTG` is reported as 0.101.
The E-score of `ACTTCCGC` is reported as -0.106.
`GGAACGGA` has an E-score of -0.0957.
`CACTTTCC` gave an E-score of 0.0173.
`TTCCCAAA` gave an E-score of 0.151.
With `CCCATTCC` the E-score was -0.249.
For `AAACCGCG`, the E-score was -0.167.
`AGGTCGGG` gave an E-score of -0.183.
The E-score of `AATTGTGC` is reported as 0.165.
`AAACATGG` gave an E-score of 0.11.
For `CGGCCAAA`, the E-score was -0.0763.

Study 6 — technique: DHFR PCA, deep sequencing; sample: yeast; added: (+)-ABA 0.032 µM; reference: wild-type fitted maximum; reading: higher = stronger binding
Target: ABI1, truncated, D143A, DHFR fusion (Arabidopsis thaliana)
Setting: methotrexate growth selection, single substitutions
Starting sequence: PYL1, truncated, DHFR fusion (Arabidopsis thaliana); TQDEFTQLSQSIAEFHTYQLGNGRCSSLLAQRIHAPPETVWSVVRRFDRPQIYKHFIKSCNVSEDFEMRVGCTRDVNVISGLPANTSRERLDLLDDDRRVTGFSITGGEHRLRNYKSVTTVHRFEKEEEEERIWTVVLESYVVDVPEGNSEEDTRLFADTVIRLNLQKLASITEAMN; partner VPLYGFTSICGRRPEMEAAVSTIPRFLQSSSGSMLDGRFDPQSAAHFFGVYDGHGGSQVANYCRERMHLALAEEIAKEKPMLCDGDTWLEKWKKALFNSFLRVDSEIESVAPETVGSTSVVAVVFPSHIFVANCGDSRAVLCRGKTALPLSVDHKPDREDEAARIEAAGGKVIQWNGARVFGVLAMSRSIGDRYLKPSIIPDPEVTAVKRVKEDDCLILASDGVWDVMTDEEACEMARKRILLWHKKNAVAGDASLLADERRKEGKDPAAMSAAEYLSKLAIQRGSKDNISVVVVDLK
`D75Q` — result for “relative binding score”: 29.5%.
`Q19L` — result for “relative binding score”: 6.75%.
For `I105H`, “relative binding score” read -9.68%.
`N149R` — result for “relative binding score”: 13%.
Under “relative binding score”, `K58T` is recorded as -1.01%.
`T120V` — result for “relative binding score”: -2.55%.
For `N85P`, “relative binding score” read 12.4%.
For `L20K`, “relative binding score” read 37.9%.
Under “relative binding score”, `A30N` is recorded as -3.75%.
Under “relative binding score”, `L166C` is recorded as 0.376%.
`D144C`: “relative binding score” -4.98%.
`T135E` — result for “relative binding score”: -2.67%.
`T160F`: “relative binding score” 46.3%.
Under “relative binding score”, `F157I` is recorded as -1.17%.

Excerpt of the above (study 3):
`AATAGCCA` has an E-score of -0.292.
`AACTCTCC` has an E-score of -0.117.
`CATTGAGC` gave an E-score of 0.0149.
With `AAAACAGT` the E-score was -0.0678.
The E-score of `CCTAGAAG` is reported as 0.0339.
For `CCTAGCTA`, the E-score was -0.15.
`AACTAAAA` has an E-score of -0.147.
